Assay results gathered from unrelated publications.
Each numbered part is a random draw from the data of one study; scales do not carry over between parts.

Series 1
Target: RNA binding protein fox-1 homolog 2, RRM domain, GST-SBP tag (RBFOX2, Homo sapiens, UniProt O43251-10, residues 100-194)
Technique: RNA Bind-n-Seq
Molecule type: RNA
Medium: in vitro
Concentration: 365 nM
Notes: natural RNA segment, single round, ends assumed
Reference: no-protein control
Reading: higher = stronger binding
Target sequence (chain): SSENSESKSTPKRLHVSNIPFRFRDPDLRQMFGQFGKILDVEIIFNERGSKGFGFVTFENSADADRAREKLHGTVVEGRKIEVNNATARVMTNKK
Sequence | RBNS enrichment (R)
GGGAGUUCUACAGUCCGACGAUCCAUGGUAAGACCCUUUUUAAAACAAACUCCAGGCCCUUGGUUGCGGGUCGCUGGGUUAUUGGGGCAGCGCCGUGGUCGUCACUCAGUCGCUCUGCAUGCUCUCUGUCAUAUGGAAUUCUCGGGUGCCAA | 8.13
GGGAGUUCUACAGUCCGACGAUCGCCACACACUGUGGUUAUCUUUUGUUGUGGUUGUUUCUGAGAAAAUGUUCUUGGAUAUGUAAGUGCCAAUACCAGUGUGAAGUAUUGAUCCCGGGCAGCAAAAUACAGCCUGGAAUUCUCGGGUGCCAA | 0.658
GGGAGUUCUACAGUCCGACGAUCACCCUUUUUGUAAAUGUCAAGGACAUUUGGAUUUACUUUUACAGAAUAUUGAAAAGAUAAGACAAAUUAUAAAUAAGUUCUAAAACAUAAAUUUAAUUCAUCUCUGCAUAUGGAAUUCUCGGGUGCCAA | 1.09
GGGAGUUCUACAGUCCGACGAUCGUAUCUCCCAAUGCUUUAGUAAAACGUAUUUAGGAGAAAUGUUGAAAAUGUACAUGAAGCUCCUUUCUGAUAUAGAAACCAUUUCUGGAGUAUUUACACUGGUUUGAUGUUGGAAUUCUCGGGUGCCAA | 1.01
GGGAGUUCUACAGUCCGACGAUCCCCAAAGCAAUGGUCCCCAAGCACUGAUGAAAACUAAUAUGCAUUUCCCAAAGACCCACACUAUGUAUCAGGAGCCUGCACCAUGCCAUUUGAAUGACCCUCAGCAAUGUUGGAAUUCUCGGGUGCCAA | 1.26
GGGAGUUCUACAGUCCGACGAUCAAUGGAUACAUAACAAAGAAUUCUCUGUGACUUAUUAAGAAUGACUGUGUCUGCCCAGUAACCUGUUCUGAGUUACUGGUAAAGUCGUGGGUGGGUGAAUGGCAGGCUUCUGGAAUUCUCGGGUGCCAA | 1.02
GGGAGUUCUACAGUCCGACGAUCAAUUAUUUGUGUUUUUUGAAAUGCCUUCCGUAGGUAACCGACAGUCUUAAGCAGUGCUCCACUAACGGUCACUCAGGGACCACCUACCCAGAACAGACGGGGAAUUGAAAUGGAAUUCUCGGGUGCCAA | 0.568
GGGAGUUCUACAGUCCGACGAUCCAGAGUUGUUUCCCAAUUCUGGAGGGAAGCUGAAUGGACACGGCUUCGUCAGUUUGCAUUUCUUUACUCCCACAAGGCUCUGCGGGGUCUUGGUGUGAGACAAGGCACAUUGGAAUUCUCGGGUGCCAA | 0.622
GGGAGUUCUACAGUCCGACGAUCUCCAACCAAAAUGUCAAGUCCGUUCCGAAGGCAUUUUCCACUAGUUUUUGGACUAUGUAAACCACAUUGUACUUUUUUUUACUUUGGCAACAAAUAUUUAUACAUACAAGUGGAAUUCUCGGGUGCCAA | 0.444
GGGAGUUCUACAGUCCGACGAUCCCUCACACAGUAGUACUAGUUGACAGUACUAGUUGGUUGAAACUAGGGAGACAGUUACCUAGACUACCAGGUAGAAGGGACAGGGGUCAGGUCAACCUCACACUGAUAUGUGGAAUUCUCGGGUGCCAA | 0.424
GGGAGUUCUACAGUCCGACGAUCAGAACAAGCUUUUUUCACCAAGCUGGUCUCUGGCCAGGGUGCAGGAAAGUCCACUUCAGCCACCAGGAGCAAAGCUGAAAUGGCAUUUGUUUUUCACACCUGGGGUCAGGUGGAAUUCUCGGGUGCCAA | 0.23
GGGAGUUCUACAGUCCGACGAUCUGUGUCCUCAGAAUUAAGAACUGGUGUUUGUAAUAAAUCAAAGCAUGCUUAUGUCAGAAUGUGUGGGCUUUGGUUUAAAGGACAUAACCUCUCCGCUUGUGACAAAGUCAUGGAAUUCUCGGGUGCCAA | 1.62

Series 2
Target: Interferon regulatory factor 5, full length, phosphomimetic (IRF5, Homo sapiens, UniProt Q13568-2, residues 1-514, S451D/S453D/S456D/S462D)
Technique: protein-binding microarray
Molecule type: double-stranded DNA, one strand shown
Medium: in vitro
Concentration: 940 nM top
Notes: 60-bp whole probe
Added: salmon DNA 0.4 mg/ml
Reference: random background probes
Reading: higher = stronger binding
Constant ends, left off below: GCCTAGCAC … GTCTTGATTCGCTTGACGCTGCTG
Sequence | fitted relative affinity [z-score]
TTAGGTATCGGTTATCGGTTAGTGCTA | 9.27
TCATTTTTTAGCTTCTCACTGTGCTAG | 1.16
GACGATATCAGTCTCGAGAAGTGCTAG | 0.953
GTCGGTTTCCTTTTCCTGACGTGCTAG | 4.35
TCAGCTTTGACTCTTTCACTGTGCTAG | 0.377
TTAGGTTTAGACACTGGGTTAGTGCTA | -0.406
GCCTTTTATTTGAAAGAAATGTGCTAG | 0.236
GACGGTATCGAGACTGGGGACGTGCTA | 4.33
GACGGTCTCCTTCTCCTGATGTGCTAG | 0.48
GTAGATATCGGGACTGGATTAGTGCTA | -0.25
TTAGGTATCTGTTTCGGTTAGTGCTAG | 6.36
GGTTTTTTTTTAATTGAAATGTGCTAG | 0.564
GTAGATATCAGTTTCGATTAGTGCTAG | 8.19
GACGATTTCAGACTGGTGACGTGCTAG | -0.0239
GACGGTTTCGTTCTCCTGACGTGCTAG | 9.12
CTAGGTTTCCTTATCCTTTAGTGCTAG | 1.19

Series 3
Target: RING finger protein unkempt homolog, zinc fingers 1-6, GST-SBP tag (UNK, Homo sapiens, UniProt Q9C0B0, residues 30-357)
Technique: RNA Bind-n-Seq
Molecule type: RNA
Medium: in vitro
Concentration: not given
Notes: RNA with constant flanks, human-mouse chimeric sites, ends assumed
Reference: input RNA pool
Reading: higher = stronger binding
Construct (chain): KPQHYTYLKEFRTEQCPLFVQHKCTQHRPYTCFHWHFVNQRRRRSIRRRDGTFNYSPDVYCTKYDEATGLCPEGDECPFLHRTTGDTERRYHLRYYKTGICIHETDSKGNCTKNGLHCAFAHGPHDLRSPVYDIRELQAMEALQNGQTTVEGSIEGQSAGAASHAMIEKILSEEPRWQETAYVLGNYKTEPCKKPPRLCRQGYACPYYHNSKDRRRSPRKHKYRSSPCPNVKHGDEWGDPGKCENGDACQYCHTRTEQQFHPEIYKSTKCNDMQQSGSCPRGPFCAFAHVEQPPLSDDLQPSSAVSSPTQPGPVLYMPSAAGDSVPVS
Sequence | bound/input enrichment
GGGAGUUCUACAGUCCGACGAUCUCAUUUUUCUCUUUUCUUUCUUUCCUUUAGGAAAAGCAGAUUAGACUGGUUGUAAGAAAAAUAGAAGCCAUGUUUCGAAGACCUGUGUUACAGGUAUUUCGUCAGUUUGUAAGACAUGAGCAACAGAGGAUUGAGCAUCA | 0.778 ratio
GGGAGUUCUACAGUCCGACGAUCCAGUCCCGCGACAGCGUUGCAGGACGAUGUGAACAAAUCGAAGACAUGGACCCUCUAUUGUAGUUCUUGAUUCUCGAAAUGUGCUAUUAUUGUUUGUCUUUUUUUUUUUUUUUUUAAAGACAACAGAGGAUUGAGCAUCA | 1.51 ratio
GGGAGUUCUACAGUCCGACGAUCGGAUUCCGCUUCCGGUUCCGUUGGGCUCGGUUCUCUCCUGAGCUACGGUCCCUGGCACUCUCAAUCCGCCAUCCAACAAACAUGGAUCAGGUAAUGCAGUUUGUGGAGCCCAGCCGGCAGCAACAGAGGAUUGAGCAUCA | 0.0731 ratio
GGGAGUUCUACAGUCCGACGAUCGCUCUUGGGAAUGUAAUAAGUGCCUUGGGGGACAAGAGCAAGAGAGCCACCCAUGUCCCUUACAGAGAUUCCAAGCUGACAAGACUCUUGCAGGAUUCCCUUGGGGGUAACAGCCAAACCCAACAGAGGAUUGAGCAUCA | 0.129 ratio
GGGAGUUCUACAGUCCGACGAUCACUCAGAGAUCCACCUCCCAAAGUGCUGGGAGUAAAGUCUGAUAUUACACACCUAACUUGAUGGAUAUUUUAUAAAGUUAAUAUGAAUCUUCCUGUUCGUCCAGGGAAGAAAGAUUUGUUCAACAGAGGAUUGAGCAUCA | 0.315 ratio
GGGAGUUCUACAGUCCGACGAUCAACAUUUUGUCAAAUUGUUAUGUUCCUGUGAAACAAGUGAACACUCUUCAUAUACUAAUCUGCUUGUACAUCUGUAUGAUAGAGAAAUGUAAAUAUGUUAAUCCAAGCAAUGUGUCACUUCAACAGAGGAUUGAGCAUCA | 0.233 ratio
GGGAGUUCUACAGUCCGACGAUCAUGGAACAUUUCGAUGCAUCACUUAGUACCUAUUUCAAGGCCUUCCUGGGCCCCCGAGAUACAAGAGUCAAAGGAUGGUUCCUCCUGGACAAUUAUAUCCCUACGUUUGUCUGUUCUGUUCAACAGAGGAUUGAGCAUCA | 0.378 ratio
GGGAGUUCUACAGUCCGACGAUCUUAUCCAAGACUCAACGAAAGACUCCAACCGUUAUUCAUAAACAUUACCAAAUACAUCGGAUUCGACAUUUUUAUAUGAGAAAAGUCAAAUUUACUCAACAGAAUUACCAUGACAGACUGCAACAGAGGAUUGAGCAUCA | 0.464 ratio
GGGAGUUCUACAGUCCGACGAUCGAGUCGAGCAAACUUGAAACAAUUCGUUAUCUUGCAGCCUCAGUGUUCACUUGCUUGUGGCAAUAGCUGGGGUUUUAUAGGUUCUGGAAGGAGAACUGACGAUGAUGCUGCCGCUGCUGCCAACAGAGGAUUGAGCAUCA | 0.282 ratio
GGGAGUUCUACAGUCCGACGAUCGCCACCAGAUCCCAGAAACAUGACCCUUGCUGCCUACAAAGAGAAGAUGAAGGAACUCCCGCUGGUGUCCUUGUUCUGCUCCUGCUUCUUGUCUGAUCCCCUGAAUAAGUCGUCCUACAACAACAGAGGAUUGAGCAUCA | 0.367 ratio
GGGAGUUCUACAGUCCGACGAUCACUCAGAGAUUAUAUUCCCAAAGUGCUGGGAGUAAAGGUGUGGCCACCACACCUAACUUCAUAGACAUAUAUUUUUUUUAAUAUGAAUCUUCCUGUUCGUCCAGGGAAGAAAGAUUUGUUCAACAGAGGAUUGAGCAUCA | 3.87 ratio

Series 4
Target: Transcriptional repressor CTCF (CTCF, Homo sapiens, UniProt P49711, residues 1-727, full length assumed)
Technique: protein-binding microarray
Molecule type: double-stranded DNA, one strand shown
Medium: in vitro
Concentration: not given
Notes: k-mer, scored over probes, only values ≥0.25
Reading: higher = stronger binding
Residues (chain): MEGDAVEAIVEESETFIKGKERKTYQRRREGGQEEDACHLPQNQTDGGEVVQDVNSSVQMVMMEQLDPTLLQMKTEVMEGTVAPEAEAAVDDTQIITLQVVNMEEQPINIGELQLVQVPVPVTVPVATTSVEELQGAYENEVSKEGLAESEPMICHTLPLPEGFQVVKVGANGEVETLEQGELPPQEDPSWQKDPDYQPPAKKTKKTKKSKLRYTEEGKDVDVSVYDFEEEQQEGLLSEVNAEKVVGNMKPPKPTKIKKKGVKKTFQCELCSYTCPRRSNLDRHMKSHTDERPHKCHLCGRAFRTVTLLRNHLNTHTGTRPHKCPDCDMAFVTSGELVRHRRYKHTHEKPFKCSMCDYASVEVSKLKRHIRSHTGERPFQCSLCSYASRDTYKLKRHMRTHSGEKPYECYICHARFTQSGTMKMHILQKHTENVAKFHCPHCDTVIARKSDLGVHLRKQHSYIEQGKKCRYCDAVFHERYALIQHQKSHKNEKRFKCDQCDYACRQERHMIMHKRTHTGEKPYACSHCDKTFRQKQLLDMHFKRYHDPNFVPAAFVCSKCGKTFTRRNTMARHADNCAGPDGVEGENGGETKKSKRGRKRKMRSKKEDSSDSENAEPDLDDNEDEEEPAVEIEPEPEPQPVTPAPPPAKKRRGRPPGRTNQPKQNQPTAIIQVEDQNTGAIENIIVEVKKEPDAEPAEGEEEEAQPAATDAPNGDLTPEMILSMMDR
Sequence | E-score
ATATATAA | 0.424
CAATTACG | 0.272
ATTATATG | 0.295
ATGCTAAT | 0.253
CGCATTTA | 0.276
ATACAAAA | 0.359
ATGTATAA | 0.341
ATGTGATA | 0.322
CGCGCCCC | 0.343
GGAAATTA | 0.272
TAAATACA | 0.28
ATACACTA | 0.261
AATTTGTA | 0.285
ATATACAG | 0.285
GGAATTTA | 0.322
AATATAAT | 0.334
CCATAATA | 0.287
TATATGAA | 0.298
CAATGCGC | 0.412
AATGGCGC | 0.36
CGCCACCC | 0.28
ATGGCGCG | 0.251
GAATATTA | 0.307
ACGCGCAT | 0.342
